# Published values of several laboratories.
# Each line is one published result; not all experiments were run side by side.
# Htr2a: 5-hydroxytryptamine receptor 2A (Htr2a, Mus musculus, UniProt P35363)
# UniProt P35363, sequence (whole entry, looked up): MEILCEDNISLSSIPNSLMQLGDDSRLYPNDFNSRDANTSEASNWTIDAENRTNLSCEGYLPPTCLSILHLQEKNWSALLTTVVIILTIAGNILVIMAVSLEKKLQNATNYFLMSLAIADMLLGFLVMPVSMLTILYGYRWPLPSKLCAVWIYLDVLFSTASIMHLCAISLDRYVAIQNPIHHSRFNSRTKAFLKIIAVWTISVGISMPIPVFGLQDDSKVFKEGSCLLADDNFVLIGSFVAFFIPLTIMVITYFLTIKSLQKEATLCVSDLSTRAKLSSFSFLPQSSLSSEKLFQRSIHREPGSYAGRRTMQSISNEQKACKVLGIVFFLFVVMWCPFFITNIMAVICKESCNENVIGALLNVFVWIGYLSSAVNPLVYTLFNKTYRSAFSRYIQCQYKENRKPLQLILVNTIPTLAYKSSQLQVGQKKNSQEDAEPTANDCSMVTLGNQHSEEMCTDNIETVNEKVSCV
# tmk: Thymidylate kinase (tmk, Mycobacterium tuberculosis, UniProt P9WKE1)
# PFF0160c E182D: Dihydroorotate dehydrogenase (quinone), mitochondrial (PFF0160c, Plasmodium falciparum, UniProt Q08210, E182D)
# UniProt P28335, sequence (whole entry, looked up): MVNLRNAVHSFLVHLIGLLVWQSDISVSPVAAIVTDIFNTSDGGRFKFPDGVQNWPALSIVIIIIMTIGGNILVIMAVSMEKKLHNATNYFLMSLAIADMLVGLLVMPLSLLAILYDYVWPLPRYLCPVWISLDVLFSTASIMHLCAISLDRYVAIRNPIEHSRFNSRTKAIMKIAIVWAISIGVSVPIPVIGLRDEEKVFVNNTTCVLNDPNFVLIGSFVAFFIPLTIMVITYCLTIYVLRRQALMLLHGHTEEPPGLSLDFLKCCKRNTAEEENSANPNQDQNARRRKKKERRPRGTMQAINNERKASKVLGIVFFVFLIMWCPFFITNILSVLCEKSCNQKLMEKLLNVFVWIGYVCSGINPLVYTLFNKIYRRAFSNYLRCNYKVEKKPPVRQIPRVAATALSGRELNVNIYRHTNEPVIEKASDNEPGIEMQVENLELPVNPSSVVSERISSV
# UniProt Q9Y2H9, sequence (whole entry, looked up): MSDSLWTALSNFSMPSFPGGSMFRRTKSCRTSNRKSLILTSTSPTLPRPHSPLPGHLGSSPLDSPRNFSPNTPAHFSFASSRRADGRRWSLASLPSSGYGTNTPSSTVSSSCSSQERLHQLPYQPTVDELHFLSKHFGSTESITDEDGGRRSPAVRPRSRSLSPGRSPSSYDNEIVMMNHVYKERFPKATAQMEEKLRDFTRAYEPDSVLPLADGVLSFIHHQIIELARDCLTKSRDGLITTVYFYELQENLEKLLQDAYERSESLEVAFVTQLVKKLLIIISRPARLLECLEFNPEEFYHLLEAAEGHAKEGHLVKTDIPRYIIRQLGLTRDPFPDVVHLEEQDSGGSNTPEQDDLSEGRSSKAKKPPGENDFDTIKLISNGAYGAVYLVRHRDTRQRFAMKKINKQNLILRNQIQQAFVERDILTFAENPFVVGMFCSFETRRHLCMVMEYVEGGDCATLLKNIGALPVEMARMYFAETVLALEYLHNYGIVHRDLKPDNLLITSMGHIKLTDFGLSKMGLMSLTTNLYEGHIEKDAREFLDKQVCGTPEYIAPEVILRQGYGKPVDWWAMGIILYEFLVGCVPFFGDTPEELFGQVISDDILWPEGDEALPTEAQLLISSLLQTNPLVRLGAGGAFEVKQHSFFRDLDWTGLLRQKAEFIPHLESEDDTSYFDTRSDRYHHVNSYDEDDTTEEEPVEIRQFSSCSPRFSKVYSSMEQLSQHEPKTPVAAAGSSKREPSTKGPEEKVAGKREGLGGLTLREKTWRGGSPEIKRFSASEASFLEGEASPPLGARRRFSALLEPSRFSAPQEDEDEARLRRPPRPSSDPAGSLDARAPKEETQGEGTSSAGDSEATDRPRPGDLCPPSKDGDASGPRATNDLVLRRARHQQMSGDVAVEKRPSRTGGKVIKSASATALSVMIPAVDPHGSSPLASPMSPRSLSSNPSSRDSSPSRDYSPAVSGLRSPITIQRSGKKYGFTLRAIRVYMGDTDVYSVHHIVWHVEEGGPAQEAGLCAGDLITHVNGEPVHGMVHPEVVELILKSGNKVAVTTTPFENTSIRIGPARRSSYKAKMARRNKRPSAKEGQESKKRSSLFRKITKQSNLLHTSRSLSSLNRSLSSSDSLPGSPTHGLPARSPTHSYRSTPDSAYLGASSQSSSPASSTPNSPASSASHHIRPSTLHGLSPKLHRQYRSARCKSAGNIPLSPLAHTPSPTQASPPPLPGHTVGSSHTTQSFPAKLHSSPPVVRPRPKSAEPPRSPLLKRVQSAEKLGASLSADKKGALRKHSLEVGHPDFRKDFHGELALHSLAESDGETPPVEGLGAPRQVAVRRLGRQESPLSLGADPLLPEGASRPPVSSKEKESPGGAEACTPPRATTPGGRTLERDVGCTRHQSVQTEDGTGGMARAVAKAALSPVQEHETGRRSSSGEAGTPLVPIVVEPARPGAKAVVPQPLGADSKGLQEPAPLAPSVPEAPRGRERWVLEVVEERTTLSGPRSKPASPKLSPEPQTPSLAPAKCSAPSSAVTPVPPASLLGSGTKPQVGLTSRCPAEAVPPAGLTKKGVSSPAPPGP
# UniProt P00519, sequence (whole entry, looked up): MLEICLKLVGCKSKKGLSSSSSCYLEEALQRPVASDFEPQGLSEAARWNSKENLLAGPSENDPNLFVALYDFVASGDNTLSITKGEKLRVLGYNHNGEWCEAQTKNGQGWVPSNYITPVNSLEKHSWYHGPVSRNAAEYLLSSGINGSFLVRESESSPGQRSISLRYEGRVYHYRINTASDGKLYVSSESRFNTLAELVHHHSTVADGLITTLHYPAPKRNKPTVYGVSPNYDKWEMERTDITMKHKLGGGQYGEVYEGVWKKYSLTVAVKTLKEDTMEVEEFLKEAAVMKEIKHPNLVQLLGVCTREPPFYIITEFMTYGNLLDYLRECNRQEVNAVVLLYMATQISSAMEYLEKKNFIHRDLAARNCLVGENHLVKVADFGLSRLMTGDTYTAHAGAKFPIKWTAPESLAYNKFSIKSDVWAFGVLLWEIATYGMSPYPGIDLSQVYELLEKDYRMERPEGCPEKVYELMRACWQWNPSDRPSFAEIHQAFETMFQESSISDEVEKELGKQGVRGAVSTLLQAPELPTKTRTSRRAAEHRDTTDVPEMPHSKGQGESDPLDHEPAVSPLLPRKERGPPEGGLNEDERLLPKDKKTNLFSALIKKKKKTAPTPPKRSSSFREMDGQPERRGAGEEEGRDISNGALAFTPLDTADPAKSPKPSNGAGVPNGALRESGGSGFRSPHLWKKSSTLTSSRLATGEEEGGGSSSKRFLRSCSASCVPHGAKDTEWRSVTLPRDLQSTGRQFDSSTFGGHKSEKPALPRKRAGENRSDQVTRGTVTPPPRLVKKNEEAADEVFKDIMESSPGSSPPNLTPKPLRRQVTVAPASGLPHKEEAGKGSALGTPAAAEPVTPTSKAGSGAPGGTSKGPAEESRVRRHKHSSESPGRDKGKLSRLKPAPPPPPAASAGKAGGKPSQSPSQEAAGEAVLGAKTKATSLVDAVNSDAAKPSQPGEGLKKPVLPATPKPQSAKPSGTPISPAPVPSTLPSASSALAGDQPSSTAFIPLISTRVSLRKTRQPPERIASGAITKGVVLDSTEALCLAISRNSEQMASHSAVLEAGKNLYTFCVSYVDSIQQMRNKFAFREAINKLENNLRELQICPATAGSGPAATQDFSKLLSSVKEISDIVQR
# UniProt O15264, sequence (whole entry, looked up): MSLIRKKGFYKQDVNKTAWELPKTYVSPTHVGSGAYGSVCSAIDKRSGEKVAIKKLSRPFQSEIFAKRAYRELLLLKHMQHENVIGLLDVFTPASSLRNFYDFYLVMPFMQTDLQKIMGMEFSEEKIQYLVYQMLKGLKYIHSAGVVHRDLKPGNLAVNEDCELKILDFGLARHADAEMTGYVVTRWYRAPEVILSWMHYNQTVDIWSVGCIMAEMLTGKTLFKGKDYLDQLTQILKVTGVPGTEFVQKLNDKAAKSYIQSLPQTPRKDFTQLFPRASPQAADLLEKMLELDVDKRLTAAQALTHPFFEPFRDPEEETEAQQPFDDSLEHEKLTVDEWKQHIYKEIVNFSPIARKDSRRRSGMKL
# UniProt P34968, sequence (whole entry, looked up): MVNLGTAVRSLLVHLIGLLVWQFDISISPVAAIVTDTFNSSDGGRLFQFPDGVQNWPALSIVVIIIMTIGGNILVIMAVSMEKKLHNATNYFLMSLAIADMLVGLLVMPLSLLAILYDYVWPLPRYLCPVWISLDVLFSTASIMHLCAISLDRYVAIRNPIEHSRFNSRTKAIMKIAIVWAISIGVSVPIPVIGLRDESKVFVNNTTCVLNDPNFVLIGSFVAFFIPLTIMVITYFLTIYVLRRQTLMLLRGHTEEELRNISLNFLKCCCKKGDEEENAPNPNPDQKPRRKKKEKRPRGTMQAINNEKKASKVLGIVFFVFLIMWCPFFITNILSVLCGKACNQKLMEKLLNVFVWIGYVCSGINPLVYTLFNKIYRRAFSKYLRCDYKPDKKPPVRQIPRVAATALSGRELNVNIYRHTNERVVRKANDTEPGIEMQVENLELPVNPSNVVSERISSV
# UniProt Q8TDR2, sequence (whole entry, looked up): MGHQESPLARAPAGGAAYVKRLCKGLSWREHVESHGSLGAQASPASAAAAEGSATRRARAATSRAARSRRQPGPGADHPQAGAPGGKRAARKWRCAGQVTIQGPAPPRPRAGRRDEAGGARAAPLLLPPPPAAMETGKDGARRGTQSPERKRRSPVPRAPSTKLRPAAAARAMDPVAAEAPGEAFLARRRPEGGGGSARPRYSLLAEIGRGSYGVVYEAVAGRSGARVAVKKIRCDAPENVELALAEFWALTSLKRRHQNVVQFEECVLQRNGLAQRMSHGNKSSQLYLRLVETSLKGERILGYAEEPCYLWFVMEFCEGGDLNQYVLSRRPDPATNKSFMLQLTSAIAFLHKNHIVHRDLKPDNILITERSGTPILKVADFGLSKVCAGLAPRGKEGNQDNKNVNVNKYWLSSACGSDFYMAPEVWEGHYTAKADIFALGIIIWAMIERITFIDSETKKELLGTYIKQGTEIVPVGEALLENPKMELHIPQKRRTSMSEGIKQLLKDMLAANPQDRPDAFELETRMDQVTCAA
SMILES,target or system,assay,system,setting,quantity,value
COc1cc(CCN)c(OC)cc1Br,Htr2a,"G protein activation, agonist, BRET",,,Emax,97%
CCOC(=O)C1=C(C)NC(=NN=c2[nH]c3ccccc3[nH]c2=O)NC1c1ccc(F)cc1 (centres unmarked),tmk,"enzyme activity, inhibitor, absorbance",,1 µg/mL,inhibition,58.8%
COC(=O)c1cc(-c2cccc(NC(=O)Nc3ccc(OC)cc3)c2)on1,Mycolicibacterium fortuitum,"microbial growth, broth dilution",ATCC6841,48 h,MIC,> 64 µg/mL
Nc1ncc(-c2nc(N3CCOCC3)nc(N3CCOCC3)n2)c(C(F)F)n1,"Tyrosine-protein kinase ABL1, phosphorylated (ABL1, Homo sapiens, UniProt P00519)","binding, competition with immobilised ligand",,10 µM,remaining binding,61%
COc1cc(CCNC(C)c2ccccc2)c(OC)cc1C#N (centres unmarked),Htr2a,"G protein activation, agonist, BRET",,,Emax,78%
CC(=O)c1c(Cc2ccccc2Cl)c[nH]c1C,PFF0160c E182D,"enzyme activity, inhibitor, absorbance",,,IC50,0.149 µM
CCOC(=O)C1=C(C)NC(=O)NC1c1ccc([N+](=O)[O-])o1 (centres unmarked),tmk,"enzyme activity, inhibitor, absorbance",,10 µg/mL,inhibition,81.3%
COc1cc(CCNC(C)c2ccccc2O)c(OC)cc1C#N (centres unmarked),"Htr2c (Mus musculus, UniProt P34968)","G protein activation, agonist, BRET",,,Emax,98%
CS(=O)(=O)c1ccc(C(=O)N[C@H]2CC[C@@]3(O)[C@H]4Cc5ccc(O)c6c5[C@@]3(CCN4CC3CC3)[C@H]2O6)s1.Cl,HEK293,"GTPγS binding, agonist, radiometric",,,Emax,39.3%
N.N.[Cl][Pt][Cl],CA46,"cell growth or viability, ATP luminescence",,72 h,IC50,1.53 µM
COc1cc(CCNCc2ccccc2O)c(OC)cc1C#N,"HTR2C (Homo sapiens, UniProt P28335)","calcium signal, agonist",,,Emax,102%
CC(=O)Nc1ccc(C(=O)N[C@H]2CC[C@@]3(O)[C@H]4Cc5ccc(O)c6c5[C@@]3(CCN4CC3CC3)[C@H]2O6)s1.Cl,HEK293,"GTPγS binding, agonist, radiometric",,,Emax,21.2%
Cc1nn(C)cc1-c1nc2c(N3CCN(Cc4ccc(Cl)cc4)CC3)c(Cl)cnc2[nH]1,"MAST1 (Homo sapiens, UniProt Q9Y2H9)","binding, competition with immobilised ligand",,1 µM,remaining binding,100%
N#Cc1c(F)cccc1N1CCN(c2ccc(O)cc2)CC1,PFF0160c E182D,"enzyme activity, inhibitor, absorbance",,,IC50,> 10 µM
CCC(NCCc1cc(OC)c(C#N)cc1OC)c1ccccc1O (centres unmarked),Htr2a,"G protein activation, agonist, BRET",,,Emax,81%
[2H]c1c([2H])c([C@]2([2H])CCCN2C(=O)C(C)(C)Oc2ccc3cn[nH]c3c2)c([2H])c([2H])c1C([2H])([2H])[2H],"MAPK13 (Homo sapiens, UniProt O15264)","binding, competition with immobilised ligand",,1 µM,remaining binding,88%
Cl.O=C(N[C@H]1CC[C@@]2(O)[C@H]3Cc4ccc(O)c5c4[C@@]2(CCN3CC2CC2)[C@H]1O5)c1ccc(C(F)F)s1,HEK293,"GTPγS binding, agonist, radiometric",,,Emax,27.2%
C#Cc1n[nH]c2c(-c3cn([C@@H](C)c4ccccn4)c(=O)[nH]c3=O)cc(F)cc12,"Cyclin-dependent kinase 2, with cyclin E1 (CDK2, Homo sapiens, UniProt P24941)","enzyme activity, inhibitor",,0.1 µM,inhibition,-9%
Cl.O=C(N[C@H]1CC[C@@]2(O)[C@H]3Cc4ccc(O)c5c4[C@@]2(CCN3CC2CC2)[C@H]1O5)c1ccc(Br)s1,HEK293,"GTPγS binding, agonist, radiometric",,,Emax,25.7%
COc1ncccc1-c1cnn2ccc(N3CCN(C(=O)OC(C)C)CC3)nc12,"STK35 (Homo sapiens, UniProt Q8TDR2)","binding, competition with immobilised ligand",,1 µM,remaining binding,68%

# Excerpt of the above:
SMILES,target or system,assay,system,setting,quantity,value
C#Cc1n[nH]c2c(-c3cn([C@@H](C)c4ccccn4)c(=O)[nH]c3=O)cc(F)cc12,"Cyclin-dependent kinase 2, with cyclin E1 (CDK2, Homo sapiens, UniProt P24941)","enzyme activity, inhibitor",,0.1 µM,inhibition,-9%
CCOC(=O)C1=C(C)NC(=O)NC1c1ccc([N+](=O)[O-])o1 (centres unmarked),tmk,"enzyme activity, inhibitor, absorbance",,10 µg/mL,inhibition,81.3%
COC(=O)c1cc(-c2cccc(NC(=O)Nc3ccc(OC)cc3)c2)on1,Mycolicibacterium fortuitum,"microbial growth, broth dilution",ATCC6841,48 h,MIC,> 64 µg/mL
